Assay results pooled from the literature.
Parts stem from different laboratories: compare values within a part only.
Chain of UniProt Q92985 (whole entry, unmodified, looked up): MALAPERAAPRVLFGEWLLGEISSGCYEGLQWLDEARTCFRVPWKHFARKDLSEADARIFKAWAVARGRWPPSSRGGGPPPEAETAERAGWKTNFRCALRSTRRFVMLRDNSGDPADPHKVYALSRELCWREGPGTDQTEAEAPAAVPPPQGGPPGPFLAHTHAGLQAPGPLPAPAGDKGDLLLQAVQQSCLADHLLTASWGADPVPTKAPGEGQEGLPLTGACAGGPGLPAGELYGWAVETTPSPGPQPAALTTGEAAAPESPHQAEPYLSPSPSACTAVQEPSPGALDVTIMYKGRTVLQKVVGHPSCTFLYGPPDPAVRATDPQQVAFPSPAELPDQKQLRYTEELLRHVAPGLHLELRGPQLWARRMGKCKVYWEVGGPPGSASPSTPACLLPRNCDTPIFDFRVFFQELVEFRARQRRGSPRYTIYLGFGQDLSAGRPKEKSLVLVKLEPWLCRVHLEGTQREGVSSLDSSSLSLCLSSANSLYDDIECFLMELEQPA

Study 1
Target: Histone acetyltransferase KAT6A, winged helix 1, GST fusion (KAT6A, Homo sapiens, UniProt Q92794, residues 1-85)
Technique: protein binding microarray
Form: double-stranded DNA, one strand shown
Matrix: in vitro
Concentration: not given
Notes: 8-mer, flanks averaged, mean of 2 arrays, mostly near background
Reference: not given
Reading: higher = stronger binding
Construct (chain): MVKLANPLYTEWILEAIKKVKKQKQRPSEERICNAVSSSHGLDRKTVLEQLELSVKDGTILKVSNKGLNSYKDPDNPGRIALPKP
Sequence	E-score
GCCGCCGA	0.439
GATAGGCC	0.0628
ATTCCTCG	-0.11

Further values, each from its own experiment
Substance	target	test	test system	setting	scale	quantity	value
CATAACTC	Sal-like protein 4, full length isoform A (SALL4, Homo sapiens, UniProt Q9UJQ4, residues 1-1053)	universal PBM	double-stranded DNA, one strand shown, in vitro	600 nM, 8-mer, flanks averaged, mean of replicates	higher = stronger binding	E-score	0.275
GCCTAGCACGACGTACTGGGGTTTCGAGACGTGCTAGTCTTGATTCGCTTGACGCTGCTG	Interferon regulatory factor 7, full length, phosphomimetic (IRF7, Homo sapiens, UniProt Q92985, residues 1-503, S101K/S471D/S472D/S475D/S476D/S477D/S483D/S484D/S487D)	protein-binding microarray	double-stranded DNA, one strand shown, in vitro	250 nM, 60-bp whole probe, with: salmon DNA 0.4 mg/ml	reference: random background probes, higher = stronger binding	log fluorescence	2.03 z-score
PhoQ, residues 284 288 289 292 302 303 SCEHLI	PhoP, residues 12 14 15 18 19 SPWRL (Escherichia coli, UniProt P23836)	Sort-seq, measured: YFP reporter	E. coli	PhoQ-PhoP variant library, with: 10 µM Mg2+	reference: high Mg2+ state, higher = stronger signaling	fold induction	0.134
GCCTAGCACTCACCTCTGCTGCTGGCACTGTGCTAGGTCTTGATTCGCTTGACGCTGCTG	Interferon regulatory factor 5, full length, phosphomimetic (IRF5, Homo sapiens, UniProt Q13568-2, residues 1-514, K96S/S451D/S453D/S456D/S462D)	protein-binding microarray	double-stranded DNA, one strand shown, in vitro	250 nM, 60-bp whole probe, with: salmon DNA 0.4 mg/ml	reference: random background probes, higher = stronger binding	log fluorescence	-0.305 z-score
AACTCCCC	Sal-like protein 4, full length isoform B (SALL4, Homo sapiens, UniProt Q9UJQ4-2, residues 1-616)	universal PBM	double-stranded DNA, one strand shown, in vitro	not given, 8-mer, flanks averaged, mean of replicates	higher = stronger binding	E-score	0.00989

Repeated from above (further values, each from its own experiment):
Substance	target	test	test system	setting	scale	quantity	value
PhoQ, residues 284 288 289 292 302 303 SCEHLI	PhoP, residues 12 14 15 18 19 SPWRL (Escherichia coli, UniProt P23836)	Sort-seq, measured: YFP reporter	E. coli	PhoQ-PhoP variant library, with: 10 µM Mg2+	reference: high Mg2+ state, higher = stronger signaling	fold induction	0.134
